Measured values pooled from the literature.
A part holds a random share of what one study measured. Changes are numbered by the printed parent chain.

Series 1 — method: DHFR PCA, deep sequencing; matrix: yeast; together with: (+)-ABA 200 µM; relative to: wild-type fitted maximum; direction: higher = stronger binding
Target: ABI1, truncated, D143A, DHFR fusion (Arabidopsis thaliana)
Notes: methotrexate growth selection, single substitutions
Starting sequence: PYL1, truncated, DHFR fusion (Arabidopsis thaliana); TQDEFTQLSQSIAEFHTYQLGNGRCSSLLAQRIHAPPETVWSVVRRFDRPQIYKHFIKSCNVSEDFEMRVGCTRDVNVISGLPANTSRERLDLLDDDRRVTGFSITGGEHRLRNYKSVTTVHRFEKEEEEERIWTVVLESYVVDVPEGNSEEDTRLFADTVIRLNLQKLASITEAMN
| Substitution | relative binding score |
| --- | --- |
| R88T | 102% |
| R163V | 49.8% |
| F5G | 88.5% |
| F5A | 89.9% |
| H16A | 0.344% |
| F157K | 1.64% |
| N77W | 99.1% |
| E67A | 99.5% |
| S117R | 7.1% |
| H55T | 103% |
| Q167L | 96.7% |
| G23T | 89.2% |
| R88L | 101% |
| R49E | 100% |
| D92E | 92.2% |
| N22Q | 95.9% |
| N77Q | 110% |
| M68W | 84.4% |
| A170P | 3.7% |
| P50D | 0.987% |
| I79M | 92.6% |

Series 2 — method: RNA Bind-n-Seq; molecule type: RNA; matrix: in vitro; tested at: 365 nM; relative to: no-protein control; direction: higher = stronger binding
Target: RNA binding protein fox-1 homolog 2, RRM domain, GST-SBP tag (RBFOX2, Homo sapiens, UniProt O43251-10, residues 100-194)
Notes: natural RNA segment, single round, ends assumed
All sequences stand within: GGGAGUUCUACAGUCCGACGAUC … UGGAAUUCUCGGGUGCCAA
Target sequence (chain): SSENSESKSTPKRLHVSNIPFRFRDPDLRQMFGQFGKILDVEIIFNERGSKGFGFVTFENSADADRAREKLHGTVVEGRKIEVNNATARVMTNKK
| Oligonucleotide | RBNS enrichment (R) |
| --- | --- |
| GCCUUGGGUGUUGGCCACAGGGUCAAGGGACUCUGGCCUCAGCCCAGAAGUGAGGGGAAGCUAUACAGAGCAGCUGUGGGAACCCCAGGGGCUUCCCUACCUCAGGCAGG | 0.47 |
| CAGCUCUGUCUGCCACACACGUGCAAGCAAUUGUGAUUUAGAGUCACCUCCUAUCCCAUUUGAUCUCACGUAAGCUCCAUUCUCCCACACAACUCUGGGCUCUGUUCAGC | 0.317 |
| AUUUAAGCUCCCCAGGAAAUCCCAUGACAAACUGGCCUCUGGCUGGCGCGCUGAUUAGACUUCAGUUCCUGAAAAGGACCAGUGGAGGGAAGAGCUAUACUUCUGGAGAA | 0.257 |
| UCCUUUCUAGGAAUGCUGAUUCAGAGUGCACCUCUUUGACUAGGUCCCAGGAUCCCCUUGUCCCUGGAGUAGGGACUAACUAUAGCACAAAGUAAUAUGUGCCAAUGCUA | 0.63 |
| CUUUCUUGGCUGUUUUAGAACAGGGUACACAGGAUCGCCACCUGCAACUGGUACUCGCUUCUUGGCUGCUGCUUCUGUUGUGAAAAGACGAGCCCAUGUUUCUGCAUGGA | 0.772 |
| CAGUCACCAUGUUGUCAAACCUUAAUAAUGCACCUCAUGUAUUAGUCACAAUAAAAAUCAGAACUCAUUAGGCUUCCCUUCUCAUUCAGAAUGCUUCAGAAAACAAUUCC | 0.362 |
| UGUACUGCCUGCCACCGCGGAGGAGGCUGGUGACAGGCCAAAGGCCAGUGGAAGAAACACCCUUUCAUCUCAGAGUCCACUGUGGCACUGGCCACCCCUCCCCAGUACAG | 0.392 |
| UUUAUAUGUUUUUAGCUUUAGUAUUUAACUUUUUGUAACAAAUAAACCUUUUUUAAAACAAGUUUAACGAAGUGUCCUGUAAUUAUUUUACCUUGGAUGUUGAAAUACUG | 0.641 |
| GGCUCCGUCCUGACUGCCCUGUGCCCUGGAAAAGCAGCAAUAGCAUCCGCCCCUUAGAGCCCUCUGGCUAGAGGAGCCACCAGUGGAAAGGAAGACCCUCCAUCCUCUGG | 0.433 |
| GAACAAUGCUUGGAAAUAUUAUGUGACUUUUUUGUUUGUUUGUUUUAGGAGGAUGGUGUAUGGUGGGGGCAAUAAAUGAGGUUUUUUGCAUUCCAAGGAAAUGGCAUAUG | 1.66 |
| CCCAUCGCCACCACCUUUUCCCAGGUUUAUUGAGGUAUGAUUGACAUCCAGUAAAAUUCACCCUUUGGAAAUAUACAGCUCUGUGAAUUUUGACAAAUUUAGUGUCUUGU | 0.563 |
| AAAGGAGACAUUCUGGCAAAGCCAAUCUGCUUAAAGGCAAAGUCCAGAACCUGGAACCUAGAGGCCUUUCUCUCUGCACGAAAAACAGGUAGUUUGCAGUCUGAGAUAUG | 4.04 |

Series 3 — method: universal PBM; molecule type: double-stranded DNA, one strand shown; matrix: in vitro; tested at: 600 nM; direction: higher = stronger binding
Target: Sal-like protein 4, full length isoform A (SALL4, Homo sapiens, UniProt Q9UJQ4, residues 1-1053)
UniProt Q9UJQ4, sequence (whole entry, looked up): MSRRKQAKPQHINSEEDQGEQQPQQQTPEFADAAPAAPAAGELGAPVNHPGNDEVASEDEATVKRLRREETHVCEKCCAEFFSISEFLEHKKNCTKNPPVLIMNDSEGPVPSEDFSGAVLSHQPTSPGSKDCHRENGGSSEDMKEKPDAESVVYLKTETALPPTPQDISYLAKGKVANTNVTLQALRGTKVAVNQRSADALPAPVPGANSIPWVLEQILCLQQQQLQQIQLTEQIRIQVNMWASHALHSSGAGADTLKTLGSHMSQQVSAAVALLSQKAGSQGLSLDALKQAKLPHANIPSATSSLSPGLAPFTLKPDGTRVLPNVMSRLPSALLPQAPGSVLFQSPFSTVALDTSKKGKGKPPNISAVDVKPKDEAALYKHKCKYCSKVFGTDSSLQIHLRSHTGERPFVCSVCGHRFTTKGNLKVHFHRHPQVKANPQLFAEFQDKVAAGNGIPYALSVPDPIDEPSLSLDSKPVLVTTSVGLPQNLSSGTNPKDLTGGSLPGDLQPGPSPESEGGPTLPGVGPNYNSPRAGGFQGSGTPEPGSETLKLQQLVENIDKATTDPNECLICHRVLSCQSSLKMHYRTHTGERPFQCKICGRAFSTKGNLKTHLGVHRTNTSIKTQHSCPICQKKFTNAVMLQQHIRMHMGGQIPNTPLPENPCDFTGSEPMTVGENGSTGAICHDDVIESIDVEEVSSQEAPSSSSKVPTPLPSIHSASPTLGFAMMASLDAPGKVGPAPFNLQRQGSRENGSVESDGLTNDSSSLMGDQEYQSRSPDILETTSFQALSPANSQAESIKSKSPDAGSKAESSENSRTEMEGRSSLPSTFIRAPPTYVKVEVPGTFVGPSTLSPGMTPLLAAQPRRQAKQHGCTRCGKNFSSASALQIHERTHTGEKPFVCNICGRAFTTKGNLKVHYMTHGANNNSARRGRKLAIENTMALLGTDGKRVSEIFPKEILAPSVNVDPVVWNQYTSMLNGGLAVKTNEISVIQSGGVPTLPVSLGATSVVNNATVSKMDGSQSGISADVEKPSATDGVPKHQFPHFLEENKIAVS
Notes: 8-mer, flanks averaged, mean of replicates
| Oligonucleotide | E-score |
| --- | --- |
| CGTGACGA | -0.0812 |
| GAAGCTTC | -0.243 |
| AGCTATGG | -0.0245 |
| CTAACATA | 0.245 |
| AGTTTTTG | 0.279 |
| TCAATTAA | 0.278 |
| AGTAACGC | -0.00801 |
| CCCATCAC | -0.181 |
| AAAGTGAG | 0.118 |
| CATTGTTA | 0.225 |
| AAAACAGG | 0.0582 |
| TACTGCTA | 0.0578 |
| AAAATAGT | 0.254 |
| AGATTCCA | 0.0111 |
| CCGCTCCC | -0.37 |
| AACGCCGC | -0.327 |
| GAGGCACA | -0.0802 |
| AGAGCTTA | 0.0711 |
| AAGCTCAG | -0.0741 |
| TCCCGCAA | -0.0426 |
| AGCCCTCG | -0.234 |
| ACGAAAAC | 0.157 |
| CATAACTA | 0.372 |

Series 4 — target: CCND1, cyclin fold, Cln2 fusion (human); method: yeast growth competition, sequencing; matrix: yeast; notes: weak parent motif; relative to: not given; direction: higher = stronger binding
Starting sequence: RP1L1 docking peptide (human); TLGLGPLSFTLED
| Substitution | normalised enrichment score |
| --- | --- |
| T1A | 0.472 |
| G5A | 0.715 |
| L4A | 0.989 |
| G3A | 0.917 |
| E12A | 0.772 |
| L2A | 0.401 |
| S8A | 0.726 |

Series 5 — target: UBE2N UBC core domain (UniProt P61088); method: yeast two-hybrid; matrix: yeast; notes: mostly zero background; relative to: not given; direction: higher = stronger interaction
B1: TRIM69 RING domain (UniProt Q86WT6); chain VIQDITMELHCPLCNDWFRDPLMLSCGHNFCEACIQDFWRLQAKETFCPECKMLCQYNNCTF
B2: ZNF598 RING domain (UniProt Q86UK7); chain AAAPERGGGSCVLCCGDLEATALGRCDHPVCYRCSTKMRVLCEQRYCAVCREELRQVVFGK
B3: ARK2C RING domain (UniProt Q6ZSG1); chain EGEESDTDEKCTICLSMLEDGEDVRRLPCMHLFHQLCVDQWLAMSKKCPICRVDIETQLGAD
B4: PHF21A RING domain (UniProt Q96BD5); chain SPTSTDGDIHEDFCSVCRKSGQLLMCDTCSRVYHLDCLDPPLKTIPKGMWICPRCQDQMLKKEEAIPW
B5: TRIM63 RING domain (UniProt Q969Q1); chain PMENLEKQLICPICLEMFTKPVVILPCQHNLCRKCANDIFQAANPYWTSRGSSVSMSGGRFRCPTCRHEVIMDRHGV
B6: CUL9 RING domain (UniProt Q8IWT3); chain AQAVPVRPDHCPVCVSPLGCDDDLPSLCCMHYCCKSCWNEYLTTRIEQNLVLNCTCPIADCPAQPTGAFIR
B7: UHRF2 RING domain (UniProt Q96PU4); chain CGGDPEKKCHSCSCRVCGGKHEPNMQLLCDECNVAYHIYCLNPPLDKVPEEEYWYCPSCKTDSSEVVKAGER
B8: RNF25 RING domain (UniProt Q96BH1); chain LTDNNIPHGQCVICLYGFQEKEAFTKTPCYHYFHCHCLARYIQHMEQELKAQGQEQEQERQHATTKQKAVGVQCPVCREPLVYDLASL
B9: RC3H2 RING domain (UniProt Q9HBD1); chain QAAQWTEFLSCPICYNEFDENVHKPISLGCSHTVCKTCLNKLHRKACPFDQTAINTDIDVL
B10: IRF2BPL RING domain (UniProt Q9H1B7); chain SPMANSGPLCCTICHERLEDTHFVQCPSVPSHKFCFPCSRESIKAQGATGEVYCPSGEKCPLVGSNVP
Construct (chain): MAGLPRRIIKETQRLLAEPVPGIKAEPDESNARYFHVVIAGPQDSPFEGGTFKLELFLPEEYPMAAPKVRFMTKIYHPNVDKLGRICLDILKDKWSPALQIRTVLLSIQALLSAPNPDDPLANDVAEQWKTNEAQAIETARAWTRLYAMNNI
| Sequence | lacZ reporter activity |
| --- | --- |
| B1 (TRIM69 RING domain) | 0 |
| QLRRLQEERTCKVCMDKEVSVVFIPCGHLVVCQECAPSLRKCPICRGIIKGTVRTF (BIRC2 RING domain (UniProt Q13490)) | 0 |
| PEELQAMDNVCIICREEMVTGAKRLPCNHIFHTSCLRSWFQRQQTCPTCRMDVLRASLPA (SYVN1 RING domain (UniProt Q86TM6)) | 0 |
| QLRRLQEERTCKVCMDKEVSIVFIPCGHLVVCKDCAPSLRKCPICRSTIKGTVRTF (BIRC3 RING domain (UniProt Q13489)) | 2620 |
| B2 (ZNF598 RING domain) | 0 |
| B3 (ARK2C RING domain) | 4600 |
| YWAMDSTFELCKICAESNKDVKIEPCGHLLCSCCLAAWQHSDSQTCPFCRCEIKGWEAVS (CBLC RING domain (UniProt Q9ULV8)) | 0 |
| B4 (PHF21A RING domain) | 0 |
| KTLSRFGIQPCSICLGDAKDPVCLPCDHVHCLRCLRAWFASEQMICPYCLTALPDEFSPA (RNF213 RING domain (UniProt Q63HN8)) | 0 |
| FASPPDSNFVCSVCHGVLKRPARLPCSHIFCKKCILRWLARQKTCPCCRKEVKRKKVVH (RNF151 RING domain (UniProt Q2KHN1)) | 0 |
| B5 (TRIM63 RING domain) | 0 |
| B6 (CUL9 RING domain) | 0 |
| B7 (UHRF2 RING domain) | 0 |
| B8 (RNF25 RING domain) | 0 |
| QHHELTSLFECPVCFDYVLPPILQCQAGHLVCNQCRQKLSCCPTCRGALTPSIRNL (SIAH2 RING domain (UniProt O43255)) | 0 |
| B9 (RC3H2 RING domain) | 0 |
| B10 (IRF2BPL RING domain) | 0 |

Some of these lines once more (series 1):
| Substitution | relative binding score |
| --- | --- |
| S117R | 7.1% |
| H55T | 103% |
| Q167L | 96.7% |
| G23T | 89.2% |
| R88L | 101% |
| R49E | 100% |
| D92E | 92.2% |
| N22Q | 95.9% |
| N77Q | 110% |
| M68W | 84.4% |
| A170P | 3.7% |
| P50D | 0.987% |
| I79M | 92.6% |
